Experimental data collected from several papers.
Parts stem from different laboratories: compare values within a part only. Positions count from the first letter of the parent shown.
Chain of UniProt P05979 (whole entry, looked up): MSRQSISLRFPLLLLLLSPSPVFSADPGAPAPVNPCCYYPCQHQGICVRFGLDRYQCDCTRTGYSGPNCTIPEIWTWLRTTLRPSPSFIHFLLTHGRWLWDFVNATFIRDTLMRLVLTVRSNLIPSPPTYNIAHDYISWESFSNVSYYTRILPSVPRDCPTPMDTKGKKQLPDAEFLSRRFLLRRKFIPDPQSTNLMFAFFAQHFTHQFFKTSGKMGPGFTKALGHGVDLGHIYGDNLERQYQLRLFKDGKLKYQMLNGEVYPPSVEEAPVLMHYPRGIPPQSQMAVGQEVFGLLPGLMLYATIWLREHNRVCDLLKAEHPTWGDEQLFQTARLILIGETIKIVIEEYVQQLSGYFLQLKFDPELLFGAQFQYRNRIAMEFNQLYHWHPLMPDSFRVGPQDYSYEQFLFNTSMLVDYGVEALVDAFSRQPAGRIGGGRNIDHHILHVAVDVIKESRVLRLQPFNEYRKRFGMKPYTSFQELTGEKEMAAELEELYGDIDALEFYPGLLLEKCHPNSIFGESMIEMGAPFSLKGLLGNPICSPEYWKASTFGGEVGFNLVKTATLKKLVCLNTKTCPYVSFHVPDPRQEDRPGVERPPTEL
Chain of UniProt P11802 (whole entry, looked up): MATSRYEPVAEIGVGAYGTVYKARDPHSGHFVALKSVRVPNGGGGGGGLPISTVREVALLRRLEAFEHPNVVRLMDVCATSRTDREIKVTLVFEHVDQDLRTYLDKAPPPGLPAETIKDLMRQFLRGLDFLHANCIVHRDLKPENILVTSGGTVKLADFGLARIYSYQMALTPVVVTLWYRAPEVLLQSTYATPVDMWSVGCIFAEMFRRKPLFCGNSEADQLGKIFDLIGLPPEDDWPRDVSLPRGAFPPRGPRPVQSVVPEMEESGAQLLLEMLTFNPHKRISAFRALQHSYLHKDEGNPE

Series 1 — observed: binding; technique: phage display NGS; form: peptide; tested at: concentration not given; relative to: input library; endpoint: enrichment fold change
Target: UDP-N-acetylglucosamine--peptide N-acetylglucosaminyltransferase 110 kDa subunit (OGT, Homo sapiens, UniProt O15294)
Chain of UniProt O15294 (whole entry, looked up): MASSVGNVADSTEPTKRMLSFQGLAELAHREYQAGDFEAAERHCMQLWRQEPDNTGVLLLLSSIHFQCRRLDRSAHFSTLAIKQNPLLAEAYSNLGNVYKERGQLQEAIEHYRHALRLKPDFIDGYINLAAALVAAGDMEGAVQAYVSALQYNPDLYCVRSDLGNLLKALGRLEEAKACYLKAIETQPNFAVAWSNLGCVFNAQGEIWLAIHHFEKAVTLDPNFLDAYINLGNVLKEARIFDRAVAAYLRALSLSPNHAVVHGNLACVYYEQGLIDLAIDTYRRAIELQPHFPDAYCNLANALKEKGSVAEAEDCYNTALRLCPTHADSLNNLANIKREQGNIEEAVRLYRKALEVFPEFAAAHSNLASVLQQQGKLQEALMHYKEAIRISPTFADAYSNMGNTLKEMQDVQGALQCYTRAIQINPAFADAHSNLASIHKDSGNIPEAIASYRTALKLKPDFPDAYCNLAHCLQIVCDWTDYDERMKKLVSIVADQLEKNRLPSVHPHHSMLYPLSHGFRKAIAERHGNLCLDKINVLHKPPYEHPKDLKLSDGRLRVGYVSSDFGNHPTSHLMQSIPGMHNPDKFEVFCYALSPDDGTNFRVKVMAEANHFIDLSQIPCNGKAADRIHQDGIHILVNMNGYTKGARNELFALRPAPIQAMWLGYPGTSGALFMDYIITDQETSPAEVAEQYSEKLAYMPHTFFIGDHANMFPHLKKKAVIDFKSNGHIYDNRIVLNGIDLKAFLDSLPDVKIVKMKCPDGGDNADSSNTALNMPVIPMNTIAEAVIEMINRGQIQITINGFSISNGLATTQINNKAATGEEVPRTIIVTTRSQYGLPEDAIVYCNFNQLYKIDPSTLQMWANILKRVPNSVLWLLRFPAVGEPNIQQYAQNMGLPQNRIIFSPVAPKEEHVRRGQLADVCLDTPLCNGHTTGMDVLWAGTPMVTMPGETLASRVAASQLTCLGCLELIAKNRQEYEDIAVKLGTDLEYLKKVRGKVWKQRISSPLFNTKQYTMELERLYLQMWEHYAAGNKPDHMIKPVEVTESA
HRNTVQHWQQVYPIH: 5.1
RMTPQFRPFYQIIMR: 5.56
EALFRYTPFYQIDI: 13.6
FMHHQHVESPVHTYI: 2.77
QIHQMRHHAPHTRVP: 4.06
HVDTWHMSHHNYTH: 6.92
HLHGHTYMPRHGEVT: 13.6
HLTHRHSYIKADHSL: 8.08

Series 2 — target: CCNA2, cyclin fold, Cln2 fusion (human); technique: yeast growth competition, sequencing; sample: yeast; notes: strong parent motif; relative to: not given; direction: higher = stronger binding; endpoint: normalised enrichment score
Starting sequence: viral docking peptide; TSVRRALFTGGSD; partner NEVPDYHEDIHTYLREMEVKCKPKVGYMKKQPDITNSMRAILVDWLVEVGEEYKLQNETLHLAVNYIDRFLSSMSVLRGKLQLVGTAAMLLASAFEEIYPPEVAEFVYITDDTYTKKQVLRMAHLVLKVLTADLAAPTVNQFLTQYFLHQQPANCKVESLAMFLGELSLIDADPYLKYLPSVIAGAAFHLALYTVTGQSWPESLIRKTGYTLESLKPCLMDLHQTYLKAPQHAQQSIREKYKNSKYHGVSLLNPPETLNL
TSVRRALFTGGSA [D13A]: 6.15
TSVRRALFTGGWD [S12W]: 5.89
TSVRRAIFTGGSD [L7I]: 1.76
TSVKRALFTGGSD [R4K]: 5.12
TSVRRALFTGMSD [G11M]: 6.14
TSVRRAEFTGGSD [L7E]: 0.0995
TSVRRALKTGGSD [F8K]: 0.107
TSVRRALFTIGSD [G10I]: 6.14

Further values, each from its own experiment — observed: cell-free assay
CNC(=O)c1ccc(-c2cnn3ccc(C(=O)N(C)c4ccc(Cl)c(C(=O)OC)c4)cc23)cc1 — IC50 (Prostaglandin G/H synthase 1 (PTGS1, Ovis aries, UniProt P05979)): > 30 µM
Cn1cncc1[C@](O)(COc1ccc(C#N)cc1-c1ccc(OC(F)(F)F)cc1)c1ccc(C#N)cc1 — remaining binding (Cyclin-dependent kinase 4 (CDK4, Homo sapiens, UniProt P11802); competition with immobilised ligand; 1 µM): 100%
